Published values from different studies.
Protocols differ between the studies behind these lines.
Method: steady-state kinetics
B1: GapA (Pseudomonas putida, UniProt Q88P44); chain MTLRIAINGFGRIGRNVLRALYTQGYRQDLQVVAINDLGDSTMNAHLLKYDSVHGTFDATVEADHESLTVNGDRIAVSAIRNPAELPWKAEAIDVVFECTGLFTDRAKAAAHLAAGAGKVIVSAPAKGADATVVYGVNHDILRASHQIISNASCTTNCLAPIAQVLHREFGIEQGLMTTIHAYTNDQVLTDVYHSDPYRARSATQSMIPSKTGAAEAVGLVLPELAGKLTGMAVRVPVINVSLVDLTVNLKREATAEQVNQLFLEASKHSKVLGYNALPLVSCDFNHNPLSSIFDANHTRANGRMLKVLAWYDNEWGFSNRMLDNCLALHRAG
B2: enzyme (Plasmodium falciparum, UniProt C0H484); chain MVREAHELLDGSRPIPIDKITYELSQNIILAFDNHENINNKDIQIEIEGRVGLVIDKNKNRIKLPINTDAIIENNYSDFQAGIDRESFEYLLDYFHNMTLKKRLSIRNNDNNNNNMDNNNNNMDNNNNIHIHNSGNNTNQTHSYDKNADDNKPTCNYSYDKKNACIYDFLELKTTKSIDKYYVIKNNNSRIRTTTYLNDDNKQETESMMIQSLQKDNLNIWNVYTGNNYDYFDDDEEDDDDDYNNNNNNNNGDTGTKTNIATNNTHGLTTSKSQHIYNNLVDKNDSIDYRISINIEYTKPISKLYLSKNTPVHERLKERTTFINTYLGLQVDMTKIKTKNNELYEVEIEIPSKTIFKAMSNLRNKKDSNYLHFICSNLVNNIRGICSQLNVFKKSKHMLKNTMITKLNNNSNNQNNLSLLPNHPNDDTISSKEKEKFKKYIHSVLPIVGDY
B3: acsA (Pseudomonas chlororaphis, UniProt Q5CD72); chain MRDYEHVVESFDYLQSATQDLHGELTALNACVECCDRHAHGEAVALYCEAQDGHAERYRFRDLQRQAARFGNFLREQGVKPGDRVAGLMPRTVELLIAILGTWRIGAVYQPLFTAFGPKAIEQRLNCSNARWIVTDPHNRPKLDDVTDCPSIVVTGGAPQNPADHHFWSALNRQADDCAPVLLDASAPFLLMCTSGTTGPAKPLEVPLSAILAFKGYMRDAIDLRADDRFWNLADPGWAYGLYYAVTGPLACGYATLFYDGPFTVESTRHIIAKYAINNLAGSPTAYRFLIAAGAEFADAVRGRLRAVSSAGEPLNPQVVRWFAEQLGVVIHDHYGQTEIGMVLCNHHGLRHPVREGSAGYAVPGYRIVVLDKAHRELPAGQPGVLAVDRERSPLCWFDGYLGMPTQAFAGRYYLSGDIVELNDDGSISFVGRNDDLITTSGYRVGPFDVESALIEHPAVVEAAVIGKPDPQRTELIKAFVVLNTPYLPSPELAEELRLHVRQRLAAHAYPREMEFVDHLPKTPSGKLQRFILRNQEIAKQQALG
B4: RDH13 (Homo sapiens, UniProt Q8NBN7); chain MSRYLLPLSALGTVAGAAVLLKDYVTGGACPSKATIPGKTVIVTGANTGIGKQTALELARRGGNIILACRDMEKCEAAAKDIRGETLNHHVNARHLDLASLKSIREFAAKIIEEEERVDILINNAGVMRCPHWTTEDGFEMQFGVNHLGHFLLTNLLLDKLKASAPSRIINLSSLAHVAGHIDFDDLNWQTRKYNTKAAYCQSKLAIVLFTKELSRRLQGSGVTVNALHPGVARTELGRHTGIHGSTFSSTTLGPIFWLLVKSPELAAQPSTYLAVAEELADVSGKYFDGLKQKAPAPEAEDEEVARRLWAESARLVGLEAPSVREQPLPR
B5: enzyme (Burkholderia cenocepacia, UniProt B4E589); chain MTGYDRQSISDTTAKILLEVQAVHFNAEKPFIFTSGWASPVYIDCRKLISYPRVRRALMEMAETTITRDIGFEQIDAVAGGETAGIPFAAWIADRMMVPMQYVRKKPKGFGRNAQIEGHLEEGSRVLLVEDLTTDSRSKINFVNALRTAGATVNHCFVLFHYNIFKESVSVLKDIDVDLHALATWWDVLRVAKASGYFETKTLDEVEKFLHAPAEWSAAHGGATAPKE
B6: spt (Sphingomonas paucimobilis, UniProt Q93UV0); chain TEAAAQPHALPADAPDIAPERDLLSKFDGLIAERQKLLDSGVTDPFAIVMEQVKSPTEAVIRGKDTILLGTYNYMGMTFDPDVIAAGKEALEKFGSGTNGSRMLNGTFHDHMEVEQALRDFYGTTGAIVFSTGYMANLGIISTLAGKGEYVILDADSHASIYDGCQQGNAEIVRFRHNSVEDLDKRLGRLPKEPAKLVVLEGVYSMLGDIAPLKEMVAVAKKHGAMVLVDEAHSMGFFGPNGRGVYEAQGLEGQIDFVVGTFSKSVGTVGGFVVSNHPKFEAVRLACRPYIFTASLPPSVVATATTSIRKLMTAHEKRERLWSNARALHGGLKAMGFRLGTETCDSAIVAVMLEDQEQAAMMWQALLDGGLYVNMARPPATPAGTFLLRCSICAEHTPAQIQTVLGMFQAAGRAVGVIG
B7: SCO6712 V290N (Streptomyces coelicolor, UniProt Q9XAL8); chain AKGITARTAPAGGEVRHLKMYAEKLADGQMGYGFEKGKASVPGPLIEVNEGDTLHIEFTNTMDVRASLHVHGLDYEISSDGTAMNKSDVEPGGTRTYTWRTHKPGRRDDGTWRPGSAGYWHYHDHVVGTEHGTGGIRNGLYGPVIVRRKGDVLPDATHTIVFNDMTINNRKPHTGPDFEATVGDRVEIVMITHGEYYHTFHMHGHRWADNRTGILTGPDDPSRVIDNKITGPADSFGFQIIAGEGVGAGAWMYHCHNQSHSDMGMVGLFLVKKPDGTIPGYEPHEHGGATAKSGESGEPTGGAAAHEHEH
B8: enzyme (Rhodospirillum rubrum, UniProt Q2RSU5); chain MSDSNDDRPFRPFQSQYRWPGVDLLAYKEEGSAPFRSVTRQVLFSGNGLTGELRYFEVGPGGHSTLERHQHAHGVMILKGRGHAMVGRAVSAVAPYDLVTIPGWSWHQFRAPADEALGFLCMVNAERDKPQLPTEADLAMLRADDAVAAFLDGLAG
B9: dxs (Escherichia coli, UniProt P77488); chain MSFDIAKYPTLALVDSTQELRLLPKESLPKLCDELRRYLLDSVSRSSGHFASGLGTVELTVALHYVYNTPFDQLIWDVGHQAYPHKILTGRRDKIGTIRQKGGLHPFPWRGESEYDVLSVGHSSTSISAGIGIAVAAEKEGKNRRTVCVIGDGAITAGMAFEAMNHAGDIRPDMLVILNDNEMSISENVGALNNHLAQLLSGKLYSSLREGGKKVFSGVPPIKELLKRTEEHIKGMVVPGTLFEELGFNYIGPVDGHDVLGLITTLKNMRDLKGPQFLHIMTKKGRGYEPAEKDPITFHAVPKFDPSSGCLPKSSGGLPSYSKIFGDWLCETAAKDNKLMAITPAMREGSGMVEFSRKFPDRYFDVAIAEQHAVTFAAGLAIGGYKPIVAIYSTFLQRAYDQVLHDVAIQKLPVLFAIDRAGIVGADGQTHQGAFDLSYLRCIPEMVIMTPSDENECRQMLYTGYHYNDGPSAVRYPRGNAVGVELTPLEKLPIGKGIVKRRGEKLAILNFGTLMPEAAKVAESLNATLVDMRFVKPLDEALILEMAASHEALVTVEENAIMGGAGSGVNEVLMAHRKPVPVLNIGLPDFFIPQGTQEEMRAELGLDAAGMEAKIKAWLA
B10: enzyme (Bacillus subtilis, UniProt O31986); chain MKLSDIYLELKKGYADSLLYSDLSLLVNIMEYEKDIDVMSIQSLVAGYEKSDTPTITCGIIVYNESKRIKKCLNSVKDDFNEIIVLDSYSTDDTVDIIKCDFPDVEIKYEKWKNDFSYARNKIIEYATSEWIYFIDADNLYSKENKGKIAKVARVLEFFSIDCVVSPYIEEYTGHLYSDTRRMFRLNGKVKFHGKVHEEPMNYNHSLPFNFIVNLKVYHNGYNPSENNIKSKTRRNINLTEEMLRLEPENPKWLFFFGRELHLLDKDEEAIDYLKKSINNYKKFNDQRHFIDALVLLCTLLLQRNNYVDLTLYLDILETEYPRCVDVDYFRSAILLVDMQNKLTSLSNMIDEALTDERYSAINTTKDHFKRILISLNIQLENWERVKEISGEIKNDNMKKEIKQYLANSLHNIEHVLKGIEV
B11: enzyme S446A (Methanosarcina mazei, UniProt Q8PVB1); chain MSEQRSVPLREHLLALKPCRHGGLIQETSETYGIPENEILDFSANFNPLGSPFDYPENGLNFEDIIKKSCGKLLEYPDNRYVEFREAAARFVGLGVTPQSIVPGNGSTEIVRLVVESVIEKGDKVLLPWPTFGEYEMQCRITGAEPVCPSQEEVNTLPDEVLEEAKILFICNPNNPTGKLRTREELKVLAERCREHKTLLYVDEAFIELSDPSQSVADLPAENNYVFVMRSLTKDFAIPGIRMGFGIAPPAMADILNTARLSWNLGAIANNTGIALLNIEGGIDSPYLKKAREMILKEGETLKAKIDRIRGFEAGEVNVNFILVDVSKFMLNSSELTARLAARGVLVRDCVSFHGLGKNYIRVAVRTEKENDRLIAAIGDVITEWGREQAKNELQHVIEKASEEGIGGRKTCEYYPCHFEGQNCTFCFCPFYPCENEKTGGKWIQASRGGRVWSCVDCHLVHKKEIAQKILDCLMHEGDTDELVKVAWKEVMEPIL
B12: enzyme K56A (Nitrosopumilus maritimus, UniProt A9A5X4); chain MDSQKFDSIIFDCDGVLVDITQSYDKTIDKTCRYVLKEFAKIDSITIDHKIIDGFASSGGFNDEVDLVYAAILSLYTANKLNKKPSEFIYDVISNTDKTGIRSVQSYLESIYDVSEFLSKLGSLGDRHNNPVYSIFDQFFFGPELYGKLFDKQSKFSEEGMISNDKVILSVSLLETLQKEFGKKIAVVTGRGIESIRYSLKDMMDYFDTKNSAFLEDEPRELAKPNPATLIRAIQSMESKNCLYVGDSMEDYMMAKDAAQAGHSTTFCAIVGTSTNPEDRRKLFADSGVEMILESINDIPKVLNLV
Chain of UniProt Q5JHM5 (whole entry, looked up): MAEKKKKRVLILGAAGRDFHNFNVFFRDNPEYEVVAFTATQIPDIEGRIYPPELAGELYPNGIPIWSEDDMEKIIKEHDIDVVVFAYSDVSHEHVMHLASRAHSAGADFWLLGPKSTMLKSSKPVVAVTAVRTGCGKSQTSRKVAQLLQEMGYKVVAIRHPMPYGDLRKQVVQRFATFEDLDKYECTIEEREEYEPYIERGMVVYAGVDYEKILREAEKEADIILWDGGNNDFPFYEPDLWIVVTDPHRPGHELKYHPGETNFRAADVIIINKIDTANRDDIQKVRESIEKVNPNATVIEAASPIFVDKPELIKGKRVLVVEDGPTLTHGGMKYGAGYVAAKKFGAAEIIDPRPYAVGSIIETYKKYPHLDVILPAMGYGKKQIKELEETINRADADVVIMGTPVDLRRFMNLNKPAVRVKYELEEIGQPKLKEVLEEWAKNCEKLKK

B1 (GapA)  Km (O=C[C@H](O)COP(=O)(O)O; added: NAD+): 440 µM
enzyme N248Y/Q325R/R246H/R328K/S219F (Arabidopsis thaliana, UniProt O24495)  Km (C[C@@H](O)C(=O)SC[C@H](NC(=O)CC[C@H](N)C(=O)O)C(=O)NCC(=O)O; pH 7.2, 25 °C): 240 µM
enzyme (Enterococcus faecalis, UniProt Q831E3)  Km (N[C@@H](C[SeH])C(=O)O; pH 7.5, 25 °C, apparent): 3550 µM
enzyme (UniProt Q83XK4)  Km (NC(=O)C1=CN([C@@H]2O[C@H](COP(=O)(O)OP(=O)(O)OC[C@H]3O[C@@H](n4cnc5c(N)ncnc54)[C@H](O)[C@@H]3O)[C@@H](O)[C@H]2O)C=CC1; pH 7, 30 °C, cofactor varied): 24.8 µM
enzyme (Thermococcus kodakarensis, UniProt Q5JHM5)  Km (O=P(O)(O)O; pH 7.5, 80 °C): 1500 µM
enzyme (Trichoderma guizhouense, UniProt A0A1T3CAM5)  Km (C[C@H](N)C(=O)N[C@@H](C[C@@H]1CCC(=O)[C@@H]2O[C@H]12)C(=O)O; 18 °C, not purified): 270 µM
B2 (enzyme)  Km (Nc1ncnc2c1ncn2[C@@H]1O[C@H](COP(=O)(O)OP(=O)(O)OP(=O)(O)O)[C@@H](O)[C@H]1O; added: Mn2+): 12 µM
B3 (acsA)  Km (CC(=O)O; pH 7): 130 µM
B4 (RDH13)  Km (CC1=C(/C=C/C(C)=C/C=C/C(C)=C/C=O)C(C)(C)CCC1; pH 7.4, 37 °C): 35 µM
enzyme (Thermothielavioides terrestris, UniProt G2R650)  Km (C=Cc1ccc(O)c(OC)c1; pH 8, 45 °C): 1620 µM
B5 (enzyme)  Km (O=C(O)c1cc(=O)[nH]c(=O)[nH]1; pH 7, room temperature, added: PRPP 5 mM): 640 µM
B6 (spt)  Km (CCCCCCCCCCCCCC(=O)SCCNC(=O)CCNC(=O)[C@H](O)C(C)(C)COP(=O)(O)OP(=O)(O)OC[C@H]1O[C@@H](n2cnc3c(N)ncnc32)[C@H](O)[C@@H]1OP(=O)(O)O; added: PLP): 80 µM
enzyme (Bordetella petrii, UniProt A9I5G2)  Km (CSCC[C@@H](NC(C)=O)C(=O)O; pH 7, 35 °C): 31800 µM
B7 (SCO6712 V290N)  Km (CCn1c(=NN=c2sc3cc(S(=O)(=O)O)ccc3n2CC)sc2cc(S(=O)(=O)O)ccc21; pH 7, 37 °C, NaCl 150 mM, added: O2 cosubstrate): 790 µM
B8 (enzyme)  Km (CSCC(=O)[C@@H](O)[C@H](O)COP(=O)(O)O; added: DTT): 39 µM
B9 (dxs)  Km (O=C[C@H](O)COP(=O)(O)O; pH 8, 37 °C): 42 µM
B10 (enzyme)  Km (O=c1ccn([C@@H]2O[C@H](CO[P@@](=O)(O)O[P@@](=O)(O)O[C@H]3O[C@H](CO)[C@@H](O)[C@H](O)[C@H]3O)[C@@H](O)[C@H]2O)c(=O)[nH]1; pH 7.5, added: SunA): 4.1 µM
B11 (enzyme S446A)  Km (Nc1ncnc2c1ncn2[C@@H]1O[C@H](COP(=O)(O)OP(=O)(O)OP(=O)(O)O)[C@@H](O)[C@H]1O; pH 8.5, 25 °C, apparent, anoxic, added: L-Thr 10 mM): 133 µM
B12 (enzyme K56A)  Km (N[C@H](COP(=O)(O)O)Cc1c[nH]cn1; pH 7.8, 25 °C): 607 µM

For quick reference, copied from above:
B3 (acsA)  Km (CC(=O)O; pH 7): 130 µM
B7 (SCO6712 V290N)  Km (CCn1c(=NN=c2sc3cc(S(=O)(=O)O)ccc3n2CC)sc2cc(S(=O)(=O)O)ccc21; pH 7, 37 °C, NaCl 150 mM, added: O2 cosubstrate): 790 µM
